# Results pooled from the literature.
# Compare with care: the assays were run in different laboratories.
Compound,method,species,sample,concentration,pH,setting,hepatic clearance
c1ccc2ccccc2c1,,developing zebrafish,liver,,,,55.5 mL/min/kg
COc1cc(-c2cc(C(C)=O)n3ccccc23)c(OC)cc1Cn1ccnc1,,,human liver microsomes,1 µM,pH 7.4,,8.9 mL/min/kg
O=C(c1ccc(F)cc1)C1CCN(CCn2c(=O)[nH]c3ccccc3c2=O)CC1,,,rat liver microsomes,,,,39.6 mL/min/kg
Cc1cccc2c1ccc1cc(C(C)C)ccc12,,developing zebrafish,liver,,,,686 mL/min/kg
CN1CCN(C(=O)c2ccc([C@H]3[C@@H](F)[C@@H](F)C[C@@H](F)[C@H]3F)cc2)CC1=O,liver microsome stability,,rat liver microsomes,1 µM,,,8.2 mL/min/kg
OCc1nc2ccc(NCc3ccc(C(F)(F)F)cc3)cc2[nH]1,,,human liver S9,1 µM,pH 7.4,,6.33 mL/min/kg
O=C(Nc1ccc(C2CCCCC2)cc1)c1cn[nH]c1,,,cryopreserved mouse hepatocytes,1 µM,,,52 mL/min/kg
O=C1CC[C@H](N2Cc3cc(N4CCN(CC5CCN(c6ccc([C@@H]7c8ccc(O)cc8CC[C@@H]7c7ccccc7)cc6)CC5)CC4)ccc3C2=O)C(=O)N1,,,cryopreserved human hepatocytes,1 µM,,corrected for fu,10.2 mL/min/kg
Cl.N=C(CC(O)c1cc2c(F)cc(F)cc2c2cc(C(F)(F)F)ccc12)Nc1ccc(F)c(F)c1 (stereo not shown),,,human liver microsomes,1 µM,pH 7.4,,1.04 L/min
O=C(NCCN1CCCC1=O)c1ccc(C2CCCCC2)cc1,liver microsome stability,,rat liver microsomes,1 µM,,,49 mL/min/kg

# A few entries again:
Compound,method,species,sample,concentration,pH,setting,hepatic clearance
O=C(Nc1ccc(C2CCCCC2)cc1)c1cn[nH]c1,,,cryopreserved mouse hepatocytes,1 µM,,,52 mL/min/kg
O=C1CC[C@H](N2Cc3cc(N4CCN(CC5CCN(c6ccc([C@@H]7c8ccc(O)cc8CC[C@@H]7c7ccccc7)cc6)CC5)CC4)ccc3C2=O)C(=O)N1,,,cryopreserved human hepatocytes,1 µM,,corrected for fu,10.2 mL/min/kg
